Experimental data collected from several papers.
Each line is one published result; not all experiments were run side by side.
FGFR3: Fibroblast growth factor receptor 3 (FGFR3, Homo sapiens, UniProt P22607)
UniProt P22607, sequence (whole entry, unmodified, looked up): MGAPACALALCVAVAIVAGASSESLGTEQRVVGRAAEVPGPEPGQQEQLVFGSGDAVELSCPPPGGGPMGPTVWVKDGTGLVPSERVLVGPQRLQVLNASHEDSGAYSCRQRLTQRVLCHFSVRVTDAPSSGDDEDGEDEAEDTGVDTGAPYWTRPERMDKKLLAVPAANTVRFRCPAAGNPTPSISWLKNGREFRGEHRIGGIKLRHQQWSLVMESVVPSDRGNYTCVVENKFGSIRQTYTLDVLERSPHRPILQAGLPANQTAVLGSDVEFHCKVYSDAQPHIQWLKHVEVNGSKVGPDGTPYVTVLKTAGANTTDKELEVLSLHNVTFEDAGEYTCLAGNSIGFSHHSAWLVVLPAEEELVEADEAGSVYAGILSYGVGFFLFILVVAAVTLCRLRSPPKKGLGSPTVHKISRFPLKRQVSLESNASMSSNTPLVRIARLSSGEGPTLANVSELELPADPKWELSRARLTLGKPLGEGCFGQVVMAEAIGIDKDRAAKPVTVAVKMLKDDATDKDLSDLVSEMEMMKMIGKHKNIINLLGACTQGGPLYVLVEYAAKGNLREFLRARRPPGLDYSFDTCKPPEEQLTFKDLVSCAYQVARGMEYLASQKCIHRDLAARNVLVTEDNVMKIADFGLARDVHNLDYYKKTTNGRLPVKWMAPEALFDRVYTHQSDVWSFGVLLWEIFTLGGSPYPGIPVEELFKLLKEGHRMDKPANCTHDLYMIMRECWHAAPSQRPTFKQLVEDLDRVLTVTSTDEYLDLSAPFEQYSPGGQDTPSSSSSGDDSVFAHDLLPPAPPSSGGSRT

Compound = Nc1ccc(/C=C/C(=O)N2CCc3c(oc4c(-c5ccc(F)cc5)cc(-c5ccc(C(=O)N6CCC(F)(F)CC6)cn5)cc34)C2)cn1; target = FGFR3; assay = binding, competition with immobilised ligand; setting = 1 µM; measurement = remaining binding; value = 100%
Compound = CCOC(=O)[C@@H]1Cc2c(cc([N+](=O)[O-])cc2[N+](=O)[O-])[C@H](O)[C@]12C(=O)Nc1ccc(Br)cc12; target = FGFR3; assay = binding, competition with immobilised ligand; setting = 0.1 µM; measurement = remaining binding; value = 75%
Compound = O=C(O)c1ccccc1/C=N/Nc1nc(-c2ccccc2Cl)cs1; target = FGFR3; assay = enzyme activity, inhibitor; setting = 1 µM; measurement = inhibition; value = -25.4%
Compound = CS(C)(=O)=Nc1ccc(-c2ccc(-c3nc4cc(O[C@@H]5CO[C@H]6[C@@H]5OC[C@H]6O)[nH]c4cc3F)cc2)cc1; target = FGFR3; assay = enzyme activity, inhibitor; setting = 10 µM; measurement = inhibition; value = -11%
Compound = CC(C)[C@H]1NC(=O)C[C@H]2/C=C/CCSSC[C@@H](NC1=O)C(=O)N[C@H](Cc1cccc3ccccc13)C(=O)NCC(=O)O2; target = Fibroblast growth factor receptor 3 (FGFR3, Homo sapiens, UniProt P22607, K650E); assay = enzyme activity, inhibitor; setting = 10 µM; measurement = inhibition; value = 11.4%
Compound = O=C1NC(=O)c2c1c1cc(F)c[n+]3c1c1c2c2cc(O)ccc2[n]1[Ru-4]312([N]=C=S)[S+]3CC[S+]1CC[S+]2CC3 (centres unmarked); target = FGFR3; assay = enzyme activity; setting = 100 nM, human enzyme, added: 10 µM ATP; scale = baseline: untreated; measurement = remaining activity; value = 95%
Compound = C[C@H](NCc1ccc(-c2ccc(C(F)(F)F)cc2)cc1)C(N)=O; target = FGFR3; assay = cell-free assay, competition with immobilised ligand; setting = 1 µM; measurement = inhibition; value = 6%
Compound = CN(/N=C/c1ccccc1C(=O)O)c1nc(-c2ccccc2Cl)cs1; target = FGFR3; assay = enzyme activity, inhibitor; setting = 1 µM; measurement = inhibition; value = -21.6%

Some of these lines once more:
Compound = CCOC(=O)[C@@H]1Cc2c(cc([N+](=O)[O-])cc2[N+](=O)[O-])[C@H](O)[C@]12C(=O)Nc1ccc(Br)cc12; target = FGFR3; assay = binding, competition with immobilised ligand; setting = 0.1 µM; measurement = remaining binding; value = 75%
